Measured values collected from several papers.
Lines come from different studies, so protocols differ. Values joined by “and” are separate records of one study, mostly repeats; a detail may differ. ± gives the spread as reported.
F2: Prothrombin (F2, Homo sapiens, UniProt P00734)
SIRT3: NAD-dependent protein deacetylase sirtuin-3, mitochondrial (SIRT3, Homo sapiens, UniProt Q9NTG7)
UniProt Q9NTG7, sequence (whole entry, looked up): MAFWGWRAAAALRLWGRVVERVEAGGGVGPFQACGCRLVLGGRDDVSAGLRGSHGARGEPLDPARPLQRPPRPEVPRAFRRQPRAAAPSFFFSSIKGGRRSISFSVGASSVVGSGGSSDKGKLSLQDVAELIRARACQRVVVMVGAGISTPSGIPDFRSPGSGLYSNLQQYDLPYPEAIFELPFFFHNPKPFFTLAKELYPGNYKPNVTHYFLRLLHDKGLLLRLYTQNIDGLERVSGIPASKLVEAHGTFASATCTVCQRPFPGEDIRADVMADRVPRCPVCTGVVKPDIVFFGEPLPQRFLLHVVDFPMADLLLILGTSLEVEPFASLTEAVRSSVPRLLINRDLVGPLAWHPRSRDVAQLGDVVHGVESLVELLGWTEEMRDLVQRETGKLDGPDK
SIRT1: NAD-dependent protein deacetylase sirtuin-1 (SIRT1, Homo sapiens, UniProt Q96EB6)
UniProt Q96EB6, sequence (whole entry, looked up): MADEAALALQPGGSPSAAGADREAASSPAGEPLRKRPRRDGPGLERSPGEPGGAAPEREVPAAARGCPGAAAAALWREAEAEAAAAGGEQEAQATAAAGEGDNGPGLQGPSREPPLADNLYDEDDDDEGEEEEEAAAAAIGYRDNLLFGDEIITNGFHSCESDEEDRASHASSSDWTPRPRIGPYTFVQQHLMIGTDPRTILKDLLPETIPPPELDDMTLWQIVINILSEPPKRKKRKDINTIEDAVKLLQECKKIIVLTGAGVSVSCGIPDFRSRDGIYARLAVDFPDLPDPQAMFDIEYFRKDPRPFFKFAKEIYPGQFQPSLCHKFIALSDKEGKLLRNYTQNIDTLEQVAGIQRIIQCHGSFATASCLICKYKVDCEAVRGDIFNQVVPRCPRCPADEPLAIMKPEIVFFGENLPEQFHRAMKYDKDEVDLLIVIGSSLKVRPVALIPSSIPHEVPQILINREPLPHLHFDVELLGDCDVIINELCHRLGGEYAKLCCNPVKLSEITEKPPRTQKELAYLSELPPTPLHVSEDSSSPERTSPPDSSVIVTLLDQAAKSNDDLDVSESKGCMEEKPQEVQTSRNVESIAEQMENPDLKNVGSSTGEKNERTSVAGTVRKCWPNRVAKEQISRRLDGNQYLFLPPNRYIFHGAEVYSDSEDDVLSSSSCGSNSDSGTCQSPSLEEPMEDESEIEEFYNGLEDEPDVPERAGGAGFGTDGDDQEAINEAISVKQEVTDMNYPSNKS
SETDB1 triple Tudor domain: Histone-lysine N-methyltransferase SETDB1, triple Tudor domain (SETDB1, Homo sapiens, UniProt Q15047)
SRPK3: SRSF protein kinase 3 (SRPK3, Homo sapiens, UniProt Q9UPE1)
UniProt Q9UPE1, sequence (whole entry, looked up): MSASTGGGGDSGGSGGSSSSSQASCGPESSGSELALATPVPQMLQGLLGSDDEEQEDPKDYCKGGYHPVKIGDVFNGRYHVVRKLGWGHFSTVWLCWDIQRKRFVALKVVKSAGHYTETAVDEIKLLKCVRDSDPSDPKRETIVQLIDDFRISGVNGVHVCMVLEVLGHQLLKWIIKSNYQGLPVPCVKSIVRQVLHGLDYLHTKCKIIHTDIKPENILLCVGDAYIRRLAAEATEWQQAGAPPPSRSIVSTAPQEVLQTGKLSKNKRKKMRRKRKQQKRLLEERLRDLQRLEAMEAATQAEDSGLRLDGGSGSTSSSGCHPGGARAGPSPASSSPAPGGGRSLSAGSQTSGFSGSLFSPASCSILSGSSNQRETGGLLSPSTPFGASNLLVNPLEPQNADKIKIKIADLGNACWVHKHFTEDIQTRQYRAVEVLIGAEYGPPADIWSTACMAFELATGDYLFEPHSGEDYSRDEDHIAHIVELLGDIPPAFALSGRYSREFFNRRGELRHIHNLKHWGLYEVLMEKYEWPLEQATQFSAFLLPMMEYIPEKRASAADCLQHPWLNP
AMY2: Pancreatic alpha-amylase (AMY2, Sus scrofa, UniProt P00690)
UniProt P00690, sequence (whole entry, looked up): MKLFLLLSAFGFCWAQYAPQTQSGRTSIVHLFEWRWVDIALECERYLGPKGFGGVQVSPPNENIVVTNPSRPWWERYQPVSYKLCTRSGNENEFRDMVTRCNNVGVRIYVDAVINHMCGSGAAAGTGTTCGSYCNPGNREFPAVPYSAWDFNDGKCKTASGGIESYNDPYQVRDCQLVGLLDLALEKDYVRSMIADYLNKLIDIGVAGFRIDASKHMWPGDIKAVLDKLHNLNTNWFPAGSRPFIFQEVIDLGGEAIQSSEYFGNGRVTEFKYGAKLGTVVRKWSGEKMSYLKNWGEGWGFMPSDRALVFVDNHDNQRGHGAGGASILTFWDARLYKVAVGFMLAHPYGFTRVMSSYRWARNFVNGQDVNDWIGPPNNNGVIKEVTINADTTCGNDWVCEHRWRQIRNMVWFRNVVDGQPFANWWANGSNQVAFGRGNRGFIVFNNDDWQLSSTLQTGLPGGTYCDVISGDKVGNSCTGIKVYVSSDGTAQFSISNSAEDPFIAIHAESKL
HTR1E: 5-hydroxytryptamine receptor 1E (HTR1E, Homo sapiens, UniProt P28566)
UniProt P28566, sequence (whole entry, looked up): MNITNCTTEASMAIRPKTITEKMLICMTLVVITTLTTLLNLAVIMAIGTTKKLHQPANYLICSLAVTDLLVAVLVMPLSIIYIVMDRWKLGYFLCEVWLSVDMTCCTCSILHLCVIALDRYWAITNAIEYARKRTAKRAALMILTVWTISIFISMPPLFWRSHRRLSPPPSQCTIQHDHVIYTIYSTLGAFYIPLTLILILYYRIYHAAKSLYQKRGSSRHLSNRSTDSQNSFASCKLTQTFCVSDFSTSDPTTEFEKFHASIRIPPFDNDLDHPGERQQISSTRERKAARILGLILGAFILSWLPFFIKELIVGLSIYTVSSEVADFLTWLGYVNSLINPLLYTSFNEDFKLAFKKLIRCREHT
UniProt P61073, sequence (whole entry, looked up): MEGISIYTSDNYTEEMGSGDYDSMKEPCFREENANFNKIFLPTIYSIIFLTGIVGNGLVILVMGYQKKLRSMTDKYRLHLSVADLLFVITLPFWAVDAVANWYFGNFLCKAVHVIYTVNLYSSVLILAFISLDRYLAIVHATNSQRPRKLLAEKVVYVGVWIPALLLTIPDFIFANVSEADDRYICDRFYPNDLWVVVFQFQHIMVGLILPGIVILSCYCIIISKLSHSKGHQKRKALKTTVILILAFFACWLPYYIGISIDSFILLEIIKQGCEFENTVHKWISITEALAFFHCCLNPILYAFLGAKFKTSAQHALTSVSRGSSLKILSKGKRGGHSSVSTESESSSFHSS
UniProt O08562, sequence (whole entry, looked up): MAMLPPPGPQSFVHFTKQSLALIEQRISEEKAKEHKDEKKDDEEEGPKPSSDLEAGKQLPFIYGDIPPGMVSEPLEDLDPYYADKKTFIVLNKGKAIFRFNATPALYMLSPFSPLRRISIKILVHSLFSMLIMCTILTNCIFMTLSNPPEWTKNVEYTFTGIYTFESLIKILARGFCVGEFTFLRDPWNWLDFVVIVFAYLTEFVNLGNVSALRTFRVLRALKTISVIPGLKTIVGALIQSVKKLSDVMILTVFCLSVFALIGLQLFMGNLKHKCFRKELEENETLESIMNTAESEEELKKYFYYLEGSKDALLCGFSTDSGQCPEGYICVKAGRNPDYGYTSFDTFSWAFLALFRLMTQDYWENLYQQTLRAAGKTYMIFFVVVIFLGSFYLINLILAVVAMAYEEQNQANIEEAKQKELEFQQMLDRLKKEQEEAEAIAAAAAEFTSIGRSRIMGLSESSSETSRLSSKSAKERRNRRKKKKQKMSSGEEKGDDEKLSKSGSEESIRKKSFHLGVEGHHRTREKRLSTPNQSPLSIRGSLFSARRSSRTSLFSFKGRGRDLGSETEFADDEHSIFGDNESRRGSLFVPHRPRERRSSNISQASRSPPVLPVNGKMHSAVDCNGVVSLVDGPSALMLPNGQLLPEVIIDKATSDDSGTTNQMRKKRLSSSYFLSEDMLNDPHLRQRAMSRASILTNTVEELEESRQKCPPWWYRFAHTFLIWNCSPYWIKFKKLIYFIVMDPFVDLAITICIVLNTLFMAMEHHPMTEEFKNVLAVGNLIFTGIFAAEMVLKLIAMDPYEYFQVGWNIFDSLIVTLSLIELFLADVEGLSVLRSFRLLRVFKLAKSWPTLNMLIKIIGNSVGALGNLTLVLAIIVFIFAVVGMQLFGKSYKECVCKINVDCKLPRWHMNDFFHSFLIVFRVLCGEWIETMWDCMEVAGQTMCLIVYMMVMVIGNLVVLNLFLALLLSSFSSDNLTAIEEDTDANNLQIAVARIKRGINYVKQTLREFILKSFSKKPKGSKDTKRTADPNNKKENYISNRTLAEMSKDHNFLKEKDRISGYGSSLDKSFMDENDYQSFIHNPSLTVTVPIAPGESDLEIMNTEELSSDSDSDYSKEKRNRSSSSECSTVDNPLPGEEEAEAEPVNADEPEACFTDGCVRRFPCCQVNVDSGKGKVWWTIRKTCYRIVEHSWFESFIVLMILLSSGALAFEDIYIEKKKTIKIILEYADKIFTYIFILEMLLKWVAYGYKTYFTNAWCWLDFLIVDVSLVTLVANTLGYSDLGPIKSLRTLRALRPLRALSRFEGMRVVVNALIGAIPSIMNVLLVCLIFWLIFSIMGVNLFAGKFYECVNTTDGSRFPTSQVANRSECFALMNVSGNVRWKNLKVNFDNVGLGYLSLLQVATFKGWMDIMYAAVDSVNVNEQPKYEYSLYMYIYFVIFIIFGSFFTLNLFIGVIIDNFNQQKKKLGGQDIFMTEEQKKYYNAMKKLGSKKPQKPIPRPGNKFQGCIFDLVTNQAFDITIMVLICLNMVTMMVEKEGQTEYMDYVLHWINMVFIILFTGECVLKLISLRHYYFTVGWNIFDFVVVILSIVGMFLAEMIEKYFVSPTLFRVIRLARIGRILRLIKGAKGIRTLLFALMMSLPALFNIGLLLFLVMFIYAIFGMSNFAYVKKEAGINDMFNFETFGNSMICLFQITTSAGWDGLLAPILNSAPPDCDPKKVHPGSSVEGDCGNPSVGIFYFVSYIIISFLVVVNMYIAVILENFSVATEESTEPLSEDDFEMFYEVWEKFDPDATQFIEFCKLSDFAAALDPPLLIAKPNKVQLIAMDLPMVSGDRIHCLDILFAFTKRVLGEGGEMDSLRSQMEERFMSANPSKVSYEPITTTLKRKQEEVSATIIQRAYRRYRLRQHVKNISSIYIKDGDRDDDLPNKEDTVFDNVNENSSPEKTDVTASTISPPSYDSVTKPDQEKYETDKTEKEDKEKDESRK

COc1cc(-n2cc3cc(F)cc(C(N)=O)c3n2)cc(Cl)c1C1CC(O)(CCO)Cc2ccccc21 (stereo not drawn)  inhibition (Zinc finger CCCH-type antiviral protein 1 (Homo sapiens, UniProt Q7Z2W4); enzyme activity, inhibitor; 10 µM): 0.67%
CC(C)(C)CNC(=O)C[C@H](NC(=O)CCc1ccccc1)C(=O)N[C@@H](Cc1cccnc1)C(=O)NCc1ccccc1Cl  inhibition (F2; enzyme activity, inhibitor; 100 µM): 12%
C[Si]1(C[C@H](CN)CC(=O)O)CCCC1  inhibition (SK potassium channel, rat; binding, radioligand binding; 70 µM, with: iodinated apamin): 2%
CCCCCCCCCCCCCC(=S)NCCCC[C@H](NS(C)(=O)=O)C(=O)N[C@H](C)C(=O)N[C@@H](CCCNC(=N)N)C(N)=O  inhibition (SIRT3; enzyme activity, inhibitor; 10 µM): 31%
O=C(Nc1cccnc1)c1cccs1  inhibition (NMNAT1 human; enzyme activity, coupled alcohol dehydrogenase counter-screen; concentration not given, with: 50 µM NMN): no inhibition
C[Si](C)(C)C[C@H](CN)CC(=O)O  inhibition (kainate receptor, rat; binding, radioligand binding; 250 µM, with: [3H]kainic acid): -1%
CN(C)C/C=C/C(=O)Nc1ccc2nc(NCCCCCN(C)C)nc(NCCCCCCN(C)C)c2c1  inhibition (KMT5B (Homo sapiens, UniProt Q4FZB7); enzyme activity, inhibitor, radiometric; 50 µM): 86%
C[C@H](NC(=O)[C@H](CC(=O)NCC(C)(C)C)NC(=O)CCc1ccccc1)C(=O)NCc1ccccc1Cl  inhibition (trypsin; enzyme activity, inhibitor; 100 µM): 2%
CCCCCCCCCCCCNC(=S)NCCCC[C@H](NC(=O)OCc1ccccc1)C(=O)N[C@@H](CCC(=O)O)C(=O)N[C@@H](CCCNC(=N)N)C(N)=O  inhibition (SIRT3; enzyme activity, inhibitor; 10 µM): 62%
CN(Cc1ccc(/C=C/C(=O)NO)cc1)CC12CC3CC(CC(C3)C1)C2  inhibition (human CGRP receptor; agonist radioligand binding; 0.05 µM): -8%
C[C@@H](O)[C@H](NC(=O)c1ccc(OCc2ccccc2)cc1)C(=O)N[C@@H](CCc1ccccc1)C(=O)NCc1ccccc1Cl  inhibition (chymotrypsin; enzyme activity, inhibitor; 100 µM): 9%
C/C=C/C(=O)Nc1ccc2nc(NCCCCCN(C)C)nc(NCCCCCCN(C)C)c2c1  inhibition (CARM1 (Homo sapiens, UniProt Q86X55); enzyme activity, inhibitor, radiometric; 10 µM): 57%
CCCCCCCCCCCCNC(=S)NCCCC[C@H](NC(=O)OCc1ccccc1)C(=O)N[C@@H](Cc1c[nH]c2ccccc12)C(=O)N[C@@H](CC(C)C)C(N)=O  inhibition (SIRT1; enzyme activity, inhibitor; 10 µM): < 5%
C=CS(=O)(=O)Nc1ccc2nc(NCCCCCN(C)C)nc(NCCCCCCN(C)C)c2c1  inhibition (SETDB1 triple Tudor domain; 3.704 µM): 103%
C=CC(=O)Nc1cccc(-c2cnc3[nH]cc(C(=O)NC(C)(C)C)c3n2)c1  inhibition (NDRG1; kinase activity; 0.1 µM): 4%
O=C1c2sc(-c3ccc(N4CCC(CO)CC4)nc3F)nc2CCN1c1cccnc1  inhibition (CHRNA1/CHRNG/CHRND (Homo sapiens, UniProt P02708+P07510+Q07001); radioligand binding, antagonist; 1 µM): -4%
CSCC[C@H](NC(=O)[C@H](C)NC(=O)[C@H](Cc1c[nH]c2ccccc12)NC(=O)[C@H](Cc1ccccc1)NC(=O)[C@H](CCC(=O)O)NC(C)=O)C(=O)N[C@@H](CC(C)C)C(=O)N[C@@H](Cc1ccc(O)cc1)C(N)=O  inhibition (Programmed cell death 1 ligand 1, with PD-1 (CD274, Homo sapiens, UniProt Q9NZQ7); PD-1/PD-L1 binding, ELISA; 10 µM): 50.7 ± 5.5%
CNC(=O)C[C@H](Cc1ccc(C#N)cc1)NC(=O)c1cc(-c2ccc(CN[C@H](C)c3ccc(C)cc3)o2)ccc1Cl  inhibition (PTGER3 (Homo sapiens, UniProt P43115); agonist response, antagonist; 10 µM; baseline: agonist control): 0%
COc1ccc(NC(=O)Nc2ccccc2)cc1  inhibition (SRPK3; binding, KINOMEscan competitive binding; concentration not given): 51%
CN(C)CCCCCCNc1nc(NCCCCCN(C)C)nc2ccc(NC(=O)CCl)cc12  inhibition (SETDB1 triple Tudor domain; 3.704 µM): 79.3%
CCCCCCCCCCCCNC(=S)NCCCC[C@H](NC(=O)OCc1ccccc1)C(=O)N[C@@H](Cc1c[nH]c2ccccc12)C(=O)NC(C)C  inhibition (SIRT3; enzyme activity, inhibitor; 10 µM): < 5%
O=C(NC1CCC1)[C@H](Cc1c[nH]c2ccccc12)NC(=O)[C@H](CCCCNC(=S)NCCc1noc(=O)[nH]1)NS(=O)(=O)c1cccc(F)c1  inhibition (SIRT1; enzyme activity, inhibitor; 1 µM): 4%
O=C1CO[C@H](CNC(=O)C2(c3ccc(Cl)cc3)CC2)CN1C1Cc2ccccc2C1  inhibition (CMKLR1 (Homo sapiens, UniProt Q99788); β-arrestin recruitment, antagonist; 1 µM): -2%
N=C(N)NCCCC(NC(=O)C(CC(=O)NO)Cc1ccc2ccccc2c1)C(=O)NC(Cc1c[nH]c2ccccc12)C(=O)NC(CCC(=O)O)C(N)=O (stereo not drawn)  inhibition (DPP4 (Homo sapiens, UniProt P27487); 1 µM): -3%
C[C@H](NC(=O)[C@H](CC(=O)NCC(C)(C)C)NC(=O)C(=O)c1c[nH]c2ccccc12)C(=O)NCc1ccc(F)cc1F  inhibition (F2; enzyme activity, inhibitor; 100 µM): 30%
O=C(Nc1cccc(C(F)(F)F)c1)Nc1ccccc1O  inhibition (SRPK3; enzyme activity, inhibitor, FRET; 10 µM): 58.9%
COc1ccc(C2CC(=O)c3c(O)c(Br)c(O)c(Br)c3O2)cc1O (stereo not drawn)  inhibition (AMY2; enzyme activity, inhibitor; 50 µM, with: CNP-G3 substrate): 40.5 ± 0.66%
CC(=O)C12NC(C)(C)CC1(C)C(=O)C1=C2c2c(c3c4n2C(C)(C)CC2=C4C4(CC(C)(C)NC(C)(C4)C2=O)CC3(C)C)C(=O)C(C)(C)N1 (single isomer, unassigned; (+))  inhibition (Scn9a (Rattus norvegicus, UniProt O08562); ion current, antagonist, whole-cell patch clamp; HEK293T; 10 µM): 2.33 ± 0.06%
Brc1ccccc1-c1nnc(CSc2nnnn2-c2ccccc2)o1  inhibition (HTR1E; ligand displacement, radioligand; 10 µM): 16%
CC(=O)N[C@H](C(=O)N[C@@H](CO)C(=O)N[C@@H](Cc1ccccc1)C(=O)N[C@H]1CCCCNC(=N)NCCCC[C@@H](C(=O)N2CCC[C@H]2C(N)=O)NC(=O)[C@H](CC(C)C)NC(=O)[C@H](CC(C)C)NC(=O)[C@H](C)NC(=O)[C@H](Cc2c[nH]c3ccccc23)NC(=O)[C@H](Cc2ccc(O)cc2)NC(=O)[C@H](CCC(=O)O)NC1=O)[C@@H](C)O  inhibition (Protein Mdm4 (MDM4, Homo sapiens, UniProt O15151); protein-protein interaction, inhibitor, TR-FRET; 0.1 µM): 64%
O=C1CC(c2ccccc2)Oc2c(Br)c(O)c(Br)c(O)c21 (stereo not drawn)  inhibition (AMY2; enzyme activity, inhibitor; 50 µM, with: CNP-G3 substrate): 51.1 ± 1.02%
Cc1ccc(CNC(=O)[C@H](CCc2ccccc2)NC(=O)[C@H](CCc2ccccc2)NC(=O)Cc2cccc(Oc3ccccc3)c2)cc1  inhibition (trypsin; enzyme activity, inhibitor; 100 µM): 0%
CC1Cc2ccccc2N1C(=O)CN1CCN(Cc2ccccc2)CC1 (stereo not drawn)  inhibition (HTR1E; radioligand binding; concentration not given, with: [3H]5-HT): -6.5%
COc1ccc2c(c1)C(CC(=O)NC(C(=O)NC(CCc1ccccc1)C(=O)NCc1ccc(C)cc1)C(C)O)CC2=O (stereo not drawn)  inhibition (trypsin; enzyme activity, inhibitor; 100 µM): -6%
COc1ccccc1N1CCN(c2nc(Nc3ccc(C)cc3C)c3nccnc3n2)CC1  inhibition (CXCR4 (Homo sapiens, UniProt P61073); arrestin recruitment, DiscoverX arrestin; 30 µM): 35% and 66%
O=C1c2sc(-c3ccc(N4CCC(F)C4)nc3F)nc2CCN1c1cccnc1 (stereo not drawn)  inhibition (PTGER2 (Homo sapiens, UniProt P43116); ligand displacement, radioligand; 1 µM): 1%
O=[N+]([O-])c1ccc(Cn2cc(Cn3cc(CO)nn3)nn2)cc1  inhibition (Cytohesin-3, PH domain (Cyth3, Mus musculus, UniProt O08967); PIP3 binding to PH domain, SPR; 50 µM): 64 ± 8%
C#CC(=O)Nc1ccc2nc(NCCCCCN(C)C)nc(NCCCCCCN(C)C)c2c1  inhibition (SETDB1 triple Tudor domain; 0.412 µM): 39%
Cc1nc2c(F)cc(-c3nc(Nc4ccc(CNC(=O)CCCCCCC(=O)NO)cc4)ncc3F)cc2n1C(C)C  inhibition (Phosphatidylinositol 4,5-bisphosphate 3-kinase catalytic subunit beta isoform, with p85 beta (Pik3cb, Mus musculus, UniProt Q8BTI9); enzyme activity; 1 µM, p110β/p85β)(m mouse): 1%
CCCCCCCCCCCCNC(=S)NCCCC[C@H](NC(=O)OCc1ccccc1)C(=O)N[C@@H](CC(C)C)C(=O)N[C@@H](CCCNC(=N)N)C(N)=O  inhibition (SIRT1; enzyme activity, inhibitor; 1 µM): 57%
COc1c(Br)c(O)c2c(c1Br)OC(c1ccccc1)CC2=O (stereo not drawn)  inhibition (AMY2; enzyme activity, inhibitor; 50 µM, with: CNP-G3 substrate): 20.8 ± 4.55%
Cc1ccc(CNC(=O)[C@H](CCc2ccccc2)NC(=O)[C@H](CC(=O)NCC(C)(C)C)NC(=O)c2ccc(OCc3ccccc3)cc2)cc1  inhibition (trypsin; enzyme activity, inhibitor; 100 µM): 3%
Cc1ccc(N(O)/N=N/c2ccc(S(=O)(=O)Nc3nccs3)cc2)cc1  inhibition (AMY2; enzyme activity, inhibitor; 300 µg/mL): 47.4%
C=CCNC(=O)[C@H](CCc1ccccc1)NC(=O)[C@H](CC(=O)NCC(C)(C)C)NC(=O)CCc1ccccc1  inhibition (trypsin; enzyme activity, inhibitor; 100 µM): 1%
CC1Cc2ccccc2N1C(=O)CN1CCN(c2ccccc2)CC1 (stereo not drawn)  inhibition (HTR1B (Homo sapiens, UniProt P28222); radioligand binding; concentration not given, with: [3H]5-CT): -2.1%

Repeated from above:
COc1cc(-n2cc3cc(F)cc(C(N)=O)c3n2)cc(Cl)c1C1CC(O)(CCO)Cc2ccccc21 (stereo not drawn)  inhibition (Zinc finger CCCH-type antiviral protein 1 (Homo sapiens, UniProt Q7Z2W4); enzyme activity, inhibitor; 10 µM): 0.67%
CN(C)C/C=C/C(=O)Nc1ccc2nc(NCCCCCN(C)C)nc(NCCCCCCN(C)C)c2c1  inhibition (KMT5B (Homo sapiens, UniProt Q4FZB7); enzyme activity, inhibitor, radiometric; 50 µM): 86%
CN(Cc1ccc(/C=C/C(=O)NO)cc1)CC12CC3CC(CC(C3)C1)C2  inhibition (human CGRP receptor; agonist radioligand binding; 0.05 µM): -8%
CC(=O)C12NC(C)(C)CC1(C)C(=O)C1=C2c2c(c3c4n2C(C)(C)CC2=C4C4(CC(C)(C)NC(C)(C4)C2=O)CC3(C)C)C(=O)C(C)(C)N1 (single isomer, unassigned; (+))  inhibition (Scn9a (Rattus norvegicus, UniProt O08562); ion current, antagonist, whole-cell patch clamp; HEK293T; 10 µM): 2.33 ± 0.06%
